Measured values of several laboratories.
Lines come from different studies, so protocols differ.

| SMILES | cell line | effect on | technique | time | setting | GI50 |
| --- | --- | --- | --- | --- | --- | --- |
| CC(=C(c1ccc(O)cc1)c1ccc(Cl)cc1)c1ccc(Cl)cc1 | IGROV-1 | cell growth or viability | – | – | – | 0.84 µM |
| C[n+]1ccc(/C=N/NC(=O)c2cncc(C(=O)N/N=C/c3cc[n+](C)c4ccccc34)n2)c2ccccc21 | MRC5 | cell growth or viability | ATP luminescence | 96 h | – | 52.3 µM |
| CN(C)c1cccc2c(S(=O)(=O)NCCCCCC(=O)NO)cccc12 | C4-2 | cell growth or viability | MTS | – | – | 1.91 µM |
| CC(Cc1ccc(Cl)cc1)=C(c1ccc(Cl)cc1)c1ccc(OCCN(C)C)cc1 | SK-MEL-2 | cell growth or viability | SRB | – | – | 5.69 µM |
| C1=[N+]2CCCC[N+]3=Cc4ccc5[n]4[Au-]23[n]2c1ccc2-c1nc2ccccc2nc1-5.F[P-](F)(F)(F)(F)F | melanoma cancer cell lines | – | – | – | NCI60 panel mean | 8 µM |
| Cn1cc(-c2cc(N3CCCCS3(=O)=O)ccc2N[C@H]2CC[C@H](C)CC2)c2cc[nH]c2c1=O (stereo in doubt) | Rec1 | cell growth or viability | CCK-8 | 72 h | – | 0.0022 µM |
| CCC(=C(c1ccc(Cl)cc1)c1ccc(OCCCN(C)C)cc1)c1ccc(OC)cc1 | Hs-578T | cell growth or viability | SRB | – | – | 7.08 µM |
| COC1CN([C@H]2CC[C@H]([C@@]3(C)Oc4c(Cl)cc(C(=O)NCc5c(SC)cc(C)[nH]c5=O)c(C)c4O3)CC2)C1 | SW1710 | cell growth or viability | ATP luminescence | 12 days | – | > 1 µM |
| C[n+]1ccc(/C=N/NC(=O)c2cccc(C(=O)N/N=C/c3cc[n+](C)c4ccccc34)n2)c2ccccc21 | MRC5 | cell growth or viability | ATP luminescence | 96 h | – | 24.8 µM |
| CC/C=C\C/C=C\C/C=C\C/C=C\C/C=C\C/C=C\CCC(=O)Nc1ccn(C2OC(CO)C(O)C2(F)F)c(=O)n1 (stereo not shown) | IGROV-1 | cell growth or viability | SRB | – | – | 3.45 µM |
